{"data": "Published values from different studies", "note": "A part holds a random share of what one study measured.", "UniProt P34981, sequence (whole entry, looked up)": "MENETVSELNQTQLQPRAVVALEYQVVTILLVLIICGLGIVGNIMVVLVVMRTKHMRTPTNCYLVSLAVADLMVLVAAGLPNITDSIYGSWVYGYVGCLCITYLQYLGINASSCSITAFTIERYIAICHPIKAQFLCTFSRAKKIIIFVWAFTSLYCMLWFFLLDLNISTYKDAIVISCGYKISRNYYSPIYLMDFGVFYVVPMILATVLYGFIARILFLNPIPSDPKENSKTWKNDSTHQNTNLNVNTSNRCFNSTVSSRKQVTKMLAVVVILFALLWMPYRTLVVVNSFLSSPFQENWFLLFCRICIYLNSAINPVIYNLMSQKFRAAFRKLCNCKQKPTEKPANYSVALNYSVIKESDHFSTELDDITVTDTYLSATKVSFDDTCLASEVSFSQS", "UniProt P54762, sequence (whole entry, looked up)": "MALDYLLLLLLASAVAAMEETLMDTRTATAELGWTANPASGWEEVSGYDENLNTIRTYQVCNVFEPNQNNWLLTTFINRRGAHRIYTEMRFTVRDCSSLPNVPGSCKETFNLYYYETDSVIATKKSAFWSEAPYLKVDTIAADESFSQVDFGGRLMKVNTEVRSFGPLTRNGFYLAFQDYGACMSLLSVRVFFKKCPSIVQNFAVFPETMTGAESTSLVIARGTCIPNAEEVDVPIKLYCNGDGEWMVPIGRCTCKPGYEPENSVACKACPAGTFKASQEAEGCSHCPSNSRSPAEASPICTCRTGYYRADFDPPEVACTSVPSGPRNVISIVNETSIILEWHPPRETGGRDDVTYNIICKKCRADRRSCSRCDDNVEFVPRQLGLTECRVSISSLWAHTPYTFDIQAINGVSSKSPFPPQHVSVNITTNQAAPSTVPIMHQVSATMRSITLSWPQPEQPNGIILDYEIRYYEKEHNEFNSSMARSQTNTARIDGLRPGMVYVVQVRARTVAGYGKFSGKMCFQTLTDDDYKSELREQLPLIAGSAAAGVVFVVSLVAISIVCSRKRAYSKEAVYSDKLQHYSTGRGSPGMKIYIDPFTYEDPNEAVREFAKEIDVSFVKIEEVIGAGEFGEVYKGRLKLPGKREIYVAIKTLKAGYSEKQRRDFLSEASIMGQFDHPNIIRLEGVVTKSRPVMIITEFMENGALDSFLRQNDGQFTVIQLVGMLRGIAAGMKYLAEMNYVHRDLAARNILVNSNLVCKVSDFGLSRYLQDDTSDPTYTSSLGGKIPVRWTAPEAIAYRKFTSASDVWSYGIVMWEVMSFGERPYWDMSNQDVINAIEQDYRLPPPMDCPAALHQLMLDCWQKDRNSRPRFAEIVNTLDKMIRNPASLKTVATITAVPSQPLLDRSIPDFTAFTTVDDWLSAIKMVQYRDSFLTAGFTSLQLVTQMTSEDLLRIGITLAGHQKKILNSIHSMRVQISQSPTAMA", "UniProt O75582, sequence (whole entry, looked up)": "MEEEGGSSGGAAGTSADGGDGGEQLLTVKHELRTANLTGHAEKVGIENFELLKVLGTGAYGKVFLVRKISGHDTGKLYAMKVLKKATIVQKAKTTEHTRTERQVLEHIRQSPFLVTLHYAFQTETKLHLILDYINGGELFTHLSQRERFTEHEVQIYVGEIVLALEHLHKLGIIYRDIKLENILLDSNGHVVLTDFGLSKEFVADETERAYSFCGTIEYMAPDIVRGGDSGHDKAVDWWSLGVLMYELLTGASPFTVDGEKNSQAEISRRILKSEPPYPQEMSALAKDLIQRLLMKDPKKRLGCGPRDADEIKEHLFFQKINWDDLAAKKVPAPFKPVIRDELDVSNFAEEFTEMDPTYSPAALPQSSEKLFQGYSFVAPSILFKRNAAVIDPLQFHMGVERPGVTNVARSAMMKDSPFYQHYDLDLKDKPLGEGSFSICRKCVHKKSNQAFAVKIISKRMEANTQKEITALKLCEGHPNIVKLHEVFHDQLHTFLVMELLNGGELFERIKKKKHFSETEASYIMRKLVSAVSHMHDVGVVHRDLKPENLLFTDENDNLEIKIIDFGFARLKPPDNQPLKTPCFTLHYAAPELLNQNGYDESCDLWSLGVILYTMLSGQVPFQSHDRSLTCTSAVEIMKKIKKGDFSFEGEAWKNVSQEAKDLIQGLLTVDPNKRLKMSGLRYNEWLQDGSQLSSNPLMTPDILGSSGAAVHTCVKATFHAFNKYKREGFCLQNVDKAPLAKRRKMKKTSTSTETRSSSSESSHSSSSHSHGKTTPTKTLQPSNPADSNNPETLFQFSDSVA", "UniProt Q13554, sequence (whole entry, looked up)": "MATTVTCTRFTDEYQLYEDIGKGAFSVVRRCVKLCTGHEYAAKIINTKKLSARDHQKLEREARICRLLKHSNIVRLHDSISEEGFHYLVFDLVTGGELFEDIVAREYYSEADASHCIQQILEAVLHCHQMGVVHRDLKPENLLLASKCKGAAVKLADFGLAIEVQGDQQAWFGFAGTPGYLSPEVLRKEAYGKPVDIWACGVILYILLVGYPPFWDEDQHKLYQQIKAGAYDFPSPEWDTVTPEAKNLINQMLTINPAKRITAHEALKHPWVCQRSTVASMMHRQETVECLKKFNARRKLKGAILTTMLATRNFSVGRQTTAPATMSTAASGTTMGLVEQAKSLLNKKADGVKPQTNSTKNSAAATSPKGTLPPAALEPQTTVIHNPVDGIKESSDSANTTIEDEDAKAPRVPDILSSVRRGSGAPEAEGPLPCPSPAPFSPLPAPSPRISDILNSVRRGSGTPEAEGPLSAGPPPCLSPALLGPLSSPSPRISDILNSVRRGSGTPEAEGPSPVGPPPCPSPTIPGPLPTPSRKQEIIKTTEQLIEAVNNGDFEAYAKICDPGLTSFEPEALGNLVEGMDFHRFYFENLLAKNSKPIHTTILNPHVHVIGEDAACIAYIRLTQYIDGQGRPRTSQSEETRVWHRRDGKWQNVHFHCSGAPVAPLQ", "UniProt P35346, sequence (whole entry, looked up)": "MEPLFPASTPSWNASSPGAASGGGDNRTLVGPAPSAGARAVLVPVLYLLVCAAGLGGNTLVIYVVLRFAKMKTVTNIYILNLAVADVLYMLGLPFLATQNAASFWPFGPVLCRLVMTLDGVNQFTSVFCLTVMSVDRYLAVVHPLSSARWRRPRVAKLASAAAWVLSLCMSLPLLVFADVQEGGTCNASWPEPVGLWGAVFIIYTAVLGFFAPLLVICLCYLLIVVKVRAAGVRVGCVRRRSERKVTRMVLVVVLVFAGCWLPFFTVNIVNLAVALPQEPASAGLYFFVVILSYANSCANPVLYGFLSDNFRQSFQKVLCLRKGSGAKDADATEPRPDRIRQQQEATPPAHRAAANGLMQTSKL", "UniProt P00519, sequence (whole entry, looked up)": "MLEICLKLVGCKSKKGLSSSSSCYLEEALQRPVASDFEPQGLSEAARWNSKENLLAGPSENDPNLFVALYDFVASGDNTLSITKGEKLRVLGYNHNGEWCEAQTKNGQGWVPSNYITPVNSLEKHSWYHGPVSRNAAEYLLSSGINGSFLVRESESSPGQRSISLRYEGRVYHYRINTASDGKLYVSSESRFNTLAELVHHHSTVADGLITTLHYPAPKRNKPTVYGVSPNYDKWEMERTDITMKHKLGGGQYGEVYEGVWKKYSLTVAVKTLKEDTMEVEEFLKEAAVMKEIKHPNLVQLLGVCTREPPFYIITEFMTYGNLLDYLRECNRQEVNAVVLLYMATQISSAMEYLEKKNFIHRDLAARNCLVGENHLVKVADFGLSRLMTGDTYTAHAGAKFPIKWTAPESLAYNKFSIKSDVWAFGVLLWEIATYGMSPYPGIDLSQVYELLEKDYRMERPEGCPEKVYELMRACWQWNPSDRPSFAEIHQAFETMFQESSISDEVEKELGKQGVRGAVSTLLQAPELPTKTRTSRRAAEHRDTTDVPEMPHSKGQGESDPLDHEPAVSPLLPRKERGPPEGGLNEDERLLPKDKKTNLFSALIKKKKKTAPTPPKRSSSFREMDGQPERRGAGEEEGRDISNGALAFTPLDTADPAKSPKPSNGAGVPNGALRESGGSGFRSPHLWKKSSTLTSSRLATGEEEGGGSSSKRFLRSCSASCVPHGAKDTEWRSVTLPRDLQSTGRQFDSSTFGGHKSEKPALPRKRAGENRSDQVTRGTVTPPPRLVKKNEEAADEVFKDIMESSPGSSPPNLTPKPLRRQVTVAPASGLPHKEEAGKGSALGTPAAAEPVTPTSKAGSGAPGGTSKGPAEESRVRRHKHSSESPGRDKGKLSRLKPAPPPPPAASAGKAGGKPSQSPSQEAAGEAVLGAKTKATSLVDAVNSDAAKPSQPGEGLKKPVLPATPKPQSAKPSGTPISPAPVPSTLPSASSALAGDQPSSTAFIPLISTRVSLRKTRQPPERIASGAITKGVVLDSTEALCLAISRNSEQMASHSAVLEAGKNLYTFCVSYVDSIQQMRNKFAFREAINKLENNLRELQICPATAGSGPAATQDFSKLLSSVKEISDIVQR"}
{"data": "Study 1", "SMILES": "CC(C)CN(C)c1nc(N)c(C(=O)N=C(N)N)nc1Cl", "observed": "β-arrestin recruitment", "action": "agonist", "method": "PRESTO-Tango", "tested at": "10 µM", "reference": "untreated"}
{"target": "FFAR1 (Homo sapiens, UniProt O14842)", "fold over basal": "1.26 fold"}
{"target": "LPAR2 (Homo sapiens, UniProt Q9HBW0)", "fold over basal": 1.86}
{"target": "SSTR5 (Homo sapiens, UniProt P35346)", "fold over basal": "0.76 fold"}
{"target": "TRHR (Homo sapiens, UniProt P34981)", "fold over basal": "1.4 fold"}
{"target": "Probable G-protein coupled receptor 19 (GPR19, Homo sapiens, UniProt Q15760)", "fold over basal": 1.68}
{"target": "G-protein coupled receptor 83 (GPR83, Homo sapiens, UniProt Q9NYM4)", "fold over basal": 0.63}
{"target": "PTGER1 (Homo sapiens, UniProt P34995)", "fold over basal": 1.26}
{"target": "GRM5 (Homo sapiens, UniProt P41594)", "fold over basal": "0.73 fold"}
{"target": "Probable G-protein coupled receptor 45 (GPR45, Homo sapiens, UniProt Q9Y5Y3)", "fold over basal": 1.13}
{"target": "S1PR5 (Homo sapiens, UniProt Q9H228)", "fold over basal": 0.68}
{"target": "HTR4 (Homo sapiens, UniProt Q13639)", "fold over basal": 0.71}
{"target": "ADRA2C (Homo sapiens, UniProt P18825)", "fold over basal": 1.77}
{"target": "HCRTR2 (Homo sapiens, UniProt O43614)", "fold over basal": "0.88 fold"}
{"target": "NPBWR2 (Homo sapiens, UniProt P48146)", "fold over basal": 0.91}
{"data": "Study 2", "Structure (SMILES)": "O=Nc1c(-c2c(O)[nH]c3ccccc23)[nH]c2ccccc12", "observed": "enzyme activity", "action": "inhibitor", "tested at": "0.5 µM", "reference": "control"}
{"target": "Cyclin-dependent kinase 6, with cyclin D3 (CDK6, Homo sapiens, UniProt Q00534)", "remaining activity": "26.1%"}
{"target": "HIPK4 (Homo sapiens, UniProt Q8NE63)", "remaining activity": "102%"}
{"target": "EPHB4 (Homo sapiens, UniProt P54760)", "remaining activity": "85.9%"}
{"target": "Cyclin-dependent kinase 4, with cyclin D3 (CDK4, Homo sapiens, UniProt P11802)", "remaining activity": "98.9%"}
{"target": "SRMS (Homo sapiens, UniProt Q9H3Y6)", "remaining activity": "102%"}
{"target": "RPS6KA6 (Homo sapiens, UniProt Q9UK32)", "remaining activity": "52.2%"}
{"target": "BLK (Homo sapiens, UniProt P51451)", "remaining activity": "75.1%"}
{"target": "HIPK2 (Homo sapiens, UniProt Q9H2X6)", "remaining activity": "104%"}
{"target": "MAPKAPK3 (Homo sapiens, UniProt Q16644)", "remaining activity": "103%"}
{"target": "TSSK2 (Homo sapiens, UniProt Q96PF2)", "remaining activity": "97.7%"}
{"target": "STK16 (Homo sapiens, UniProt O75716)", "remaining activity": "54.8%"}
{"target": "EPHA4 (Homo sapiens, UniProt P54764)", "remaining activity": "89.4%"}
{"target": "CAMK2B (Homo sapiens, UniProt Q13554)", "remaining activity": "87.5%"}
{"target": "ABL1 (Homo sapiens, UniProt P00519)", "remaining activity": "82.5%"}
{"target": "AXL (Homo sapiens, UniProt P30530)", "remaining activity": "82.3%"}
{"target": "EPHB1 (Homo sapiens, UniProt P54762)", "remaining activity": "86.2%"}
{"target": "MAP4K4 (Homo sapiens, UniProt O95819)", "remaining activity": "42%"}
{"target": "DYRK3 (Homo sapiens, UniProt O43781)", "remaining activity": "106%"}
{"target": "STK17A (Homo sapiens, UniProt Q9UEE5)", "remaining activity": "46%"}
{"target": "PHKG1 (Homo sapiens, UniProt Q16816)", "remaining activity": "31.5%"}
{"target": "WNK3 (Homo sapiens, UniProt Q9BYP7)", "remaining activity": "89.4%"}
{"target": "RPS6KA5 (Homo sapiens, UniProt O75582)", "remaining activity": "67%"}
{"data": "Study 3", "host": "mouse", "sample": "microsomes or S9", "tested at": "2 µM", "time": "0.5 h"}
{"Compound": "Cc1cnc(CC2CCCN(C(=O)NC(C)(C)C)C2)n1CC1CC1 (stereo not shown)", "remaining compound [%]": 5.49}
{"Compound": "Cc1c(CN2C[C@H]3CC[C@@H](C2)NC3)oc2ccccc12", "remaining compound [%]": 46}
{"Compound": "O=C(NCC1=COCCO1)NC1CCc2c1ccc(Cl)c2Cl (stereo not shown)", "remaining compound [%]": 10.9}
{"Compound": "c1ccc(-c2ncn(CCn3nnc4ccccc43)c2-c2ccsc2)cc1", "remaining compound [%]": 2.67}
{"Compound": "CC(C)COc1cc(=O)n2c(c1C(=O)NCc1ccc(C(F)(F)F)cc1)CCCCC2", "remaining compound [%]": 3.75}
{"Compound": "CCN(CCCNC(=O)Nc1cc(Br)cn(C)c1=O)S(C)(=O)=O", "remaining compound [%]": 11.6}
{"Compound": "COc1ccc2c(n1)c1c(n2-c2ccccn2)CCC1", "remaining compound [%]": 0.298}
{"Compound": "Cc1nc(C(C)(C)C)nc(N2CCC(n3cncn3)CC2)c1C", "remaining compound [%]": 32.3}
{"Compound": "CCOc1ccccc1NC(=O)c1cc2cc(C)ccc2[nH]1", "remaining compound [%]": 47}
{"Compound": "COC(=O)c1c(NCc2ccccc2C(F)(F)F)c2cccc(Cl)c2[nH]c1=O", "remaining compound [%]": 47.7}
{"Compound": "c1ccc(CNc2nc3ccccc3c3nncn23)cc1", "remaining compound [%]": 5.03}
{"Compound": "CN1CCN(c2nsc(-c3ccccc3)c2C#N)CC1", "remaining compound [%]": 0.381}
{"Compound": "CNC(=O)[C@@H]1C[C@H](Oc2ccccc2)CN1C1CCN(C(=O)NC(C)C)CC1", "remaining compound [%]": 69.1}
{"Compound": "COCCCn1cnnc1C(C)NC(=O)c1cnn[nH]1 (stereo not shown)", "remaining compound [%]": 0}
{"Compound": "CN(C)S(=O)(=O)N1CCN(Cc2c(O)occ(CN3CCOCC3)c2=O)CC1", "remaining compound [%]": 84.7}
{"Compound": "CC(C)O[C@H]1C[C@@H](NC(=O)Nc2ccnnc2)C1", "remaining compound [%]": 88.7}
{"Compound": "O=C(Nc1cccc2c1OCCC2O)c1cc2sccc2[nH]1 (stereo not shown)", "remaining compound [%]": 38}
{"Compound": "CCN(C1=C(N2CCC(C)CC2)C(=O)c2ccccc2C1=O)c1ccccc1", "remaining compound [%]": 0.0446}
{"Compound": "COc1ccc(CNc2ccc(C(=O)N3CCN(Cc4ccc(OC)c(OC)c4OC)CC3)cc2S(=O)(=O)Nc2cccc(OC)c2)cc1", "remaining compound [%]": 2.38}
{"data": "Study 4", "target": "Muscarinic acetylcholine receptor M2 (CHRM2, Homo sapiens, UniProt P08172)", "observed": "ligand displacement", "tested at": "10 µM", "UniProt P08172, sequence (whole entry, looked up)": "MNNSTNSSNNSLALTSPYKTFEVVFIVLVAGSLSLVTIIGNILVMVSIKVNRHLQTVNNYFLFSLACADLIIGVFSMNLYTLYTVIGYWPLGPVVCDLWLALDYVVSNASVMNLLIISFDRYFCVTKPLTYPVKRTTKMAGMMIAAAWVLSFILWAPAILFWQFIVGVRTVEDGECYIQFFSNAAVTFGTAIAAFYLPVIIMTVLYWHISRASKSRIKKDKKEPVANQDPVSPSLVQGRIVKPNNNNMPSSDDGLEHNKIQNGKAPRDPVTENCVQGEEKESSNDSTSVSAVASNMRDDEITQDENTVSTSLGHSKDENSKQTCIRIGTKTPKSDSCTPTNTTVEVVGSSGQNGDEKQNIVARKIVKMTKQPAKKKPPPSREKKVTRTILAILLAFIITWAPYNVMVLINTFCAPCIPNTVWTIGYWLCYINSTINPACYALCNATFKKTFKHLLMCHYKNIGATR"}
{"SMILES": "CNC(=N)NCCC[C@H](NC(=O)[C@H](CC(C)C)NC(=O)NNC(=O)[C@H](Cc1ccccc1)NC(=O)[C@H](CO)NC(=O)[C@H](CC(N)=O)NC(=O)[C@@H](Cc1ccncc1)NC(=O)[C@H](N)Cc1ccc(O)cc1)C(=O)N[C@@H](Cc1ccccc1)C(N)=O", "inhibition [%]": 25.1}
{"SMILES": "CCc1ccccc1C(=O)Nc1n[nH]c2c(C)c(F)c(C3C(C#N)=C(C)N(C)C(C)=C3C#N)cc12", "inhibition [%]": 5.1}
{"SMILES": "Nc1nc(NCc2ccccc2)nc(-c2cccc(CO)c2)n1", "inhibition [%]": 18.3}
{"SMILES": "c1ccc(N2CCN(Cc3nc4ccccc4[nH]3)CC2)nc1", "inhibition [%]": 19.5}
{"SMILES": "CN1CCN(c2cnc3c(C4CCN(C(=O)c5ccc(OC(F)(F)F)cc5N)CC4)ncnc3c2)CC1", "inhibition [%]": -0.56}
{"SMILES": "CN(C)CC#Cc1ccc(OCCCc2sc(N3CCc4cccc(C(=O)Nc5nc6ccccc6s5)c4C3)nc2C(=O)O)c(F)c1", "inhibition [%]": 34.7}
{"SMILES": "Cc1c(NC(=O)c2cc(C(N)=O)nc3cc(F)ccc23)c(C(F)(F)F)nn1Cc1ccc(C#N)cc1", "inhibition [%]": 25.8}
{"SMILES": "CN([C@@H]1CCc2c(CC(=O)O)c3ccccc3n2C1)S(=O)(=O)c1ccc(F)cc1", "inhibition [%]": -0.4}
{"SMILES": "Cc1ncc(-c2cc(Cl)ccc2F)cc1-n1c(=O)n(CC(N)=O)c2ccccc21", "inhibition [%]": 14.4}
{"SMILES": "O=c1nc(-c2ccccn2)sc2ccccc12", "inhibition [%]": 5.18}
{"SMILES": "CC(=O)N1CCC(c2ccc(C(=O)NC3=NCCN3)cc2C(F)(F)F)CC1", "inhibition [%]": -0.799}
{"SMILES": "Cc1ccc(-c2cnc([C@@]3(O)CC[C@H](C(=O)O)C(C)(C)C3)s2)cc1Nc1cccc(C(F)(F)F)n1", "inhibition [%]": 23}
{"SMILES": "CCC(F)(F)c1cc(N2CCC(S(C)(=O)=O)CC2)nc2sc(C(N)=O)c(N)c12", "inhibition [%]": 8}
{"SMILES": "O=C1NC(c2ccccn2)Sc2ccccc21 (stereo not shown)", "inhibition [%]": 13.7}
{"SMILES": "CC1=C(C#N)C(c2ccc3[nH]nc(C)c3c2)C(C#N)=C(C)N1", "inhibition [%]": -8.64}
{"SMILES": "CC(=O)Nc1ncc(CN2CCC[C@H](Cc3cc(C)nc(C)c3)C2)s1", "inhibition [%]": 9.54}
{"SMILES": "Cc1cc(Nc2nccc(C)n2)cc(-c2cnc([C@@]3(O)CC[C@H](C(=O)O)C(C)(C)C3)s2)c1", "inhibition [%]": 8.6}
{"SMILES": "Cn1cc(Cl)c2c(Oc3c(F)cc(Nc4cc(Cl)nc(N)n4)cc3F)ccnc21", "inhibition [%]": 0.85}
{"SMILES": "CN1CCN(C(=O)C(C)(C)c2ccc(C(=O)Nc3cn4cc(-c5cc(C(C)(C)C)cc(C(C)(C)C)c5)ccc4n3)cc2)CC1", "inhibition [%]": 6.55}
{"SMILES": "c1ccc(C2CCN(c3cnc4c(N5CCOCC5)nccn34)CC2)cc1", "inhibition [%]": 9.44}
{"SMILES": "Cc1ccccc1Oc1cc(-n2c(=O)cc(C(F)(F)F)[nH]c2=O)c2ccccc2c1Cl", "inhibition [%]": 39.2}
{"SMILES": "CN(C)c1ncnc(-c2ccc3nc(Nc4cc(CN5CCN(C(=O)CC(F)(F)F)CC5)ccn4)[nH]c3c2)c1Cl", "inhibition [%]": 35.1}
{"SMILES": "COc1cc(C(=O)O)ncc1C#Cc1ccccc1NS(=O)(=O)c1cccc2c(N(C)C)ccnc12", "inhibition [%]": 2.62}
{"SMILES": "C[C@H](c1ccc(F)cc1)N(Cc1cccc(C(=O)O)c1)C(=O)c1cnc2ccccc2c1", "inhibition [%]": 12.6}
{"note": "Some of these lines once more (study 2):"}
{"target": "MAPKAPK3 (Homo sapiens, UniProt Q16644)", "remaining activity": "103%"}
{"target": "TSSK2 (Homo sapiens, UniProt Q96PF2)", "remaining activity": "97.7%"}
{"target": "STK16 (Homo sapiens, UniProt O75716)", "remaining activity": "54.8%"}
{"target": "EPHA4 (Homo sapiens, UniProt P54764)", "remaining activity": "89.4%"}
{"target": "CAMK2B (Homo sapiens, UniProt Q13554)", "remaining activity": "87.5%"}
{"target": "ABL1 (Homo sapiens, UniProt P00519)", "remaining activity": "82.5%"}
{"target": "AXL (Homo sapiens, UniProt P30530)", "remaining activity": "82.3%"}
{"target": "EPHB1 (Homo sapiens, UniProt P54762)", "remaining activity": "86.2%"}
{"target": "MAP4K4 (Homo sapiens, UniProt O95819)", "remaining activity": "42%"}
{"target": "DYRK3 (Homo sapiens, UniProt O43781)", "remaining activity": "106%"}
{"target": "STK17A (Homo sapiens, UniProt Q9UEE5)", "remaining activity": "46%"}
